# Assay results of several laboratories.
# Each numbered part is a random draw from the data of one study; scales do not carry over between parts. Positions count from the first letter of the parent shown.

# Block 1
# Target: CCND3, cyclin fold, Cln2 fusion (human)
# Technique: yeast growth competition, sequencing
# Matrix: yeast
# Notes: weak parent motif
# Baseline: not given
# Reading: higher = stronger binding
# Starting sequence: MASTL docking peptide (human); PMIAKNLMCELDE
Change,normalised enrichment score
K5H,-0.14
M8G,-0.00638
D12V,0.0167
E10Y,0.158
M8D,-0.118
N6A,-0.223
D12F,0.237
K5Q,-0.14

# Block 2
# Target: Sal-like protein 4, full length isoform B (SALL4, Homo sapiens, UniProt Q9UJQ4-2, residues 1-616)
# Technique: universal PBM
# Molecule type: double-stranded DNA, one strand shown
# Matrix: in vitro
# Concentration: not given
# Notes: 8-mer, flanks averaged, mean of replicates
# Reading: higher = stronger binding
# Construct (chain): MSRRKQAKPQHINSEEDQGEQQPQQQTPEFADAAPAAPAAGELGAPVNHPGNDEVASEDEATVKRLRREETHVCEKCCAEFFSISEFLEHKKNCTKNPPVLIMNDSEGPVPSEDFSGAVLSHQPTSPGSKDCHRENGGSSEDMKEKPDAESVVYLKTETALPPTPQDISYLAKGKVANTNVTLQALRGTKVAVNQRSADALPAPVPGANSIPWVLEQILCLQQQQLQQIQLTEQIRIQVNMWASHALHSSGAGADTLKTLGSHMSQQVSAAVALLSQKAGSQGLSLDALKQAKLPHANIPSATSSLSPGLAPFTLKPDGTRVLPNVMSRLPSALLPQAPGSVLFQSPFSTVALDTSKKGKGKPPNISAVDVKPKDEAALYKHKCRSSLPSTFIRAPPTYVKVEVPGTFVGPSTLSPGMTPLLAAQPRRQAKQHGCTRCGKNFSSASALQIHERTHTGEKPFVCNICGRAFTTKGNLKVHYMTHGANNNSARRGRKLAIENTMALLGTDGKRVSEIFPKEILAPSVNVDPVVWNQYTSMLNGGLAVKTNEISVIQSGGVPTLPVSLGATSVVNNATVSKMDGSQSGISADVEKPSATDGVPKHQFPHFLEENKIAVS
Oligonucleotide,E-score
GCATATCA,0.212
AAGCTGAA,-0.0673
CCAGGGGC,-0.378
GCCTGCAA,-0.0949
ATACGAAT,0.27
AGAGGTTC,-0.0201
CCAATAGG,0.0666

# Block 3
# Target: RNA binding protein fox-1 homolog 2, RRM domain, GST-SBP tag (RBFOX2, Homo sapiens, UniProt O43251-10, residues 100-194)
# Technique: RNA Bind-n-Seq
# Molecule type: RNA
# Matrix: in vitro
# Concentration: 365 nM
# Notes: natural RNA segment, single round, ends assumed
# Baseline: no-protein control
# Reading: higher = stronger binding
# Construct (chain): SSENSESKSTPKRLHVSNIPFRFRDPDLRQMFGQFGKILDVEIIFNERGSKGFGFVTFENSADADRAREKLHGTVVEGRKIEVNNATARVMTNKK
Oligonucleotide,RBNS enrichment (R)
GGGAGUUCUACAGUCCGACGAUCAGACAUUUAUAAGCACUCUAAUGGAUAACAAUCCAAGAAUAAAUGAUUGUAAAAGAUGAUGCCGAAGAGUUGAUGUCAAUCUUUUUUUCCUAAGAAAAAAAGUCCGCGAGUGGAAUUCUCGGGUGCCAA,0.518
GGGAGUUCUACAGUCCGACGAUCUCCCCUAGGUGGUCUCAUAAUUCCAUUUGUGGAGAGAACAGGAGGGCCAGAUAGAUAGGUCCUAGCAGAAGGCAUUGAGGUGAGGGAUCAUUUUGGGUCAGACAUCAAUGUGGAAUUCUCGGGUGCCAA,0.711
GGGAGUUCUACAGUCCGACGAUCUCUCCUCCUGACCCCAGUGGCUGCGGUGAGGGGAACCACCCUCCCUUGCUGCACCAGUGGCCAUUAGCUCCCGUCACCACUGCAACCCAGGGUCCCAGCUGGCUGGGUCCUGGAAUUCUCGGGUGCCAA,0.309
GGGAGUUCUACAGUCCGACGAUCAGCUGCAGGUGGUUUCAUAGGGUAAAAUCCAAGAAAAGAGAAGGAUGUGUGGGGUUUCUAUUAGAAGAUAAUUUUGUUCUCAUUUUACCUUUUCUUUUAUGAUCCUUCUCUGGAAUUCUCGGGUGCCAA,0.6
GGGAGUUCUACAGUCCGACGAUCGGUAGAAAUUAAUCUUAACAAGACUUUAUGAGGCAGGAUCAAAUCCUAGUGGGCCUGAGCAGGUUUCUUACCCUAAGUGUUUUCUCCCUUUUUACAAUCUCUGUCCAGCAUGGAAUUCUCGGGUGCCAA,3.78

# Single results of other studies
Molecule,target,test,system,setting,scale,endpoint,value
"PhoQ, residues 284 288 289 292 302 303 SASVAL","PhoP, residues 12 14 15 18 19 LHSVW (Escherichia coli, UniProt P23836)","Sort-seq, refers to: YFP reporter",E. coli,"PhoQ-PhoP variant library, with: 10 µM Mg2+","baseline: high Mg2+ state, higher = stronger signaling",fold induction,1.34

# Repeated from above (block 1):
Change,normalised enrichment score
N6A,-0.223
D12F,0.237
K5Q,-0.14
